# Results pooled from the literature.
# Compare with care: the assays were run in different laboratories. Values joined by “and” are separate records of one study, mostly repeats; a detail may differ. ± gives the spread as reported.
SMILES,assay,system,conditions,scale,quantity,value
CCCC[C@H](NC(=O)[C@@H](NC(=O)[C@H](CC(=O)O)NC(=O)[C@H](CCC(N)=O)NC(=O)[C@H](CC(C)C)NC(=O)[C@H](CC(C)C)NC(=O)[C@H](CCCN)NC(=O)[C@H](CCCNC(=N)N)NC(=O)[C@H](C)NC(=O)[C@H](CO)NC(=O)[C@H](CC(C)C)NC(=O)[C@H](CCC(N)=O)NC(=O)[C@H](CC)NC(=O)[C@H](CC(C)C)NC(=O)[C@@H](NC(=O)[C@H](CCCN)NC(=O)[C@H](CCCNC(=N)N)NC(=O)[C@H](Cc1ccc(O)cc1)NC(=O)[C@H](CO)NC(=O)[C@H](CCC(N)=O)NC(=O)[C@@H](NC(=O)[C@H](Cc1ccccc1)NC(=O)[C@@H](NC(=O)[C@H](C)NC(=O)[C@H](CC(=O)O)NC(=O)[C@@H](C)NC(=O)[C@H](Cc1ccc(O)cc1)NC)[C@@H](C)CC)[C@@H](C)O)C(C)C)[C@@H](C)CC)C(=O)N[C@@H](CC(=O)O)C(=O)N[C@@H](CCCNC(=N)N)C(=O)NCC,"GH release, ELISA","male Sprague-Dawley rat, anaesthetised, serum","subcutaneous, 3 µg/kg, 30 min",,serum GH level,126 ± 15.8 ng/mL
CCCCCCOC(=O)Cc1c(C)n(C(=O)c2ccc(Cl)cc2)c2ccc(OC)cc12,acetic acid writhing test,BALB/c mouse,"intraperitoneal, 10 mg/kg",baseline: negative control,analgesia,60.8%
CN(C)c1ccc(-c2oc3ccccc3c(=O)c2OCc2ccccc2)cc1,,diabetic rat,"5 mg/kg, 28 days, p-nitrophenyl β-glucoside induced",,serum HDL cholesterol,46.9 ± 1.97 mg/dL
COc1ccc(S(=O)(=O)N2CCc3ccccc3C2)cc1N1CCN(C(=O)c2ccc(F)cc2C(F)(F)F)CC1,,6-OHDA lesioned rats,"0.3 µg/24 h, 12 weeks post lesion",baseline: lesioned over intact side,TH-ir cells in SNpc,15.4 ± 1.9%
CCCCCCCCCn1cc(C(N)(CO)CO)nn1,,"APP/PS1 mouse, cortex, hippocampus",dose not given,,Lamp1 and TFEB protein level,increased
NC(=O)c1cccnc1.O.O=c1[nH]cc(F)c(=O)[nH]1.O=c1[nH]cc(F)c(=O)[nH]1.O=c1[nH]cc(F)c(=O)[nH]1,,nude mouse HCT-116 xenograft,"0.012 mmol/kg/day, 21 days",,tumour weight,0.59 ± 0.13 g
CCCOC(=O)Cc1c(C)n(C(=O)c2ccc(Cl)cc2)c2ccc(OC)cc12,,"BALB/c mice, acetic acid writhing","intraperitoneal, 20 mg/kg, 20 min count",,writhing count,13.3 ± 1.58
COc1ccc(C2CC(c3ccc(C)cc3)=Nc3ccccc3S2)cc1 (stereo not shown),,"rat, normal, overnight fasted","oral, 20 mg/kg, 90 min, oral glucose tolerance test, with: glucose 3 g/kg oral",,blood glucose,109 ± 4.21 mg/dL
COc1c2c(cc3oc(CO)cc(=O)c13)O[C@H](C(C)(C)O)C2,,"mouse, xylene ear edema","oral, 2 mg/kg",,ear edema weight increase,3.7 ± 0.29 mg
COc1ccc2c(c1)c(CC(=O)OCC(=O)OC(C)(C)C)c(C)n2C(=O)c1ccc(Cl)cc1,,"BALB/c mice, acetic acid writhing","intraperitoneal, 30 mg/kg, 20 min count",,writhing count,10 ± 1.79
CCCCCCCCCCCCCCCC(=O)N[C@@H](CCC(=O)NCCCC[C@H](NC(=O)[C@H](CC(=O)O)NC(=O)[C@H](CO)NC(=O)[C@@H](NC(=O)[C@H](Cc1ccccc1)NC(=O)[C@@H](NC(=O)CNC(=O)[C@H](CCC(N)=O)NC(=O)[C@H](CO)NC(=O)[C@@H](N)Cc1c[nH]cn1)[C@@H](C)O)[C@@H](C)O)C(=O)N[C@@H](CO)C(=O)N[C@@H](CCC(=O)O)C(=O)N[C@@H](Cc1ccc(O)cc1)C(=O)N[C@@H](CC(C)C)C(=O)N[C@@H](CC(=O)O)C(=O)N[C@@H](CO)C(=O)N[C@@H](CCC(=O)O)C(=O)N[C@@H](CCCNC(=N)N)C(=O)N[C@@H](C)C(=O)N[C@@H](CCCNC(=N)N)C(=O)N[C@@H](CC(=O)O)C(=O)N[C@@H](Cc1ccccc1)C(=O)N[C@H](C(=O)N[C@@H](C)C(=O)N[C@@H](Cc1c[nH]c2ccccc12)C(=O)N[C@@H](CC(C)C)C(=O)N[C@@H](CCC(=O)O)C(=O)N[C@@H](C)C(=O)NCC(=O)NCC(=O)O)C(C)C)C(=O)O,,female cynomolgus monkey,"subcutaneous, 8 nmol/kg/day for 8 weeks, day 57",baseline: starting body weight,body weight loss,5%
CC[C@H]1[C@@H](O)[C@@H]2[C@H](CC[C@]3(C)[C@@H]([C@H](C)CCOS(=O)(=O)[O-])CC[C@@H]23)[C@@]2(C)CC[C@@H](O)C[C@@H]12.[Na+],EchoMRI,ob/ob NASH mouse model,"oral, 10 mg/kg once daily, before treatment, baseline of 8 week study",,whole-body fat mass,19.5 ± 0.7 g
NS(=O)(=O)NCC(F)(F)c1ccccc1F,MES seizures,rat,oral,,ED50,44 mg/kg
Cc1ncc([N+](=O)[O-])n1CCOCc1nnc(SCC(=O)c2ccc(Cl)cc2)o1,,,"75 µg/mL, 45 min",,DPPH scavenging,38.2 ± 0.54%
Clc1ccc(C(c2c[nH]c3ccccc23)c2c[nH]c3ccccc23)cc1,"Western blot, item: Nurr1","mice, MPTP/probenecid Parkinson model, striatum",dose not given,baseline: control,protein level,77.2% and ~80%
CCCC[C@H](NC(=O)[C@@H](NC(=O)[C@H](CC(=O)O)NC(=O)[C@H](CCC(N)=O)NC(=O)[C@H](CC(C)C)NC(=O)[C@H](CC(C)C)NC(=O)[C@H](CCCN)NC(=O)[C@H](CCCNC(=N)N)NC(=O)[C@H](C)NC(=O)[C@H](CO)NC(=O)[C@H](CC(C)C)NC(=O)[C@H](CCC(N)=O)NC(=O)[C@H](CC)NC(=O)[C@H](CC(C)C)NC(=O)[C@@H](NC(=O)[C@H](CCCN)NC(=O)[C@H](CCCNC(=N)N)NC(=O)[C@H](Cc1ccc(O)cc1)NC(=O)[C@H](CO)NC(=O)[C@H](CC(N)=O)NC(=O)[C@@H](NC(=O)[C@H](Cc1ccccc1)NC(=O)[C@@H](NC(=O)[C@H](C)NC(=O)[C@H](CC(=O)O)NC(=O)[C@@H](C)NC(=O)[C@H](Cc1ccc(O)cc1)NC)[C@@H](C)CC)[C@@H](C)O)C(C)C)[C@@H](C)CC)C(=O)N[C@@H](CC(=O)O)C(=O)NCCCCNC(=N)N,"GH release, ELISA","male Sprague-Dawley rat, anaesthetised, serum","subcutaneous, 3 µg/kg, 15 min",,serum GH level,244 ± 25.1 ng/mL
O=C(N[C@H]1CNC1=O)OCCCCC1CCCCC1,in vivo efficacy,mouse EAE model,dose not given,,EAE disease score,no effect
NS(=O)(=O)c1ccc(NC(=O)NN[C@@H]2O[C@H](CO)[C@@H](O)[C@H](O)[C@H]2O)cc1,,"rabbit, glaucoma model","topical ocular, 1 %, 1 h",,maximal IOP reduction,~5 mmHg
Cc1ccc(-c2oc3ccccc3c(=O)c2OCc2ccccc2)cc1,,diabetic rat,"7.5 mg/kg, p-nitrophenyl β-glucoside induced",,serum alkaline phosphatase,192 ± 4.05 IU
Cc1cc2c(cc1C1(c3ncc(C(=O)O)cn3)CC1)C(C)(C)CCC2(C)C,"RNA sequencing, item: Sycp2","rat, brain","dose not given, 24 h",baseline: vehicle,log2 fold change,0.69
CCCC[C@H](NC(=O)[C@@H](NC(=O)[C@H](CC(=O)O)NC(=O)[C@H](CCC(N)=O)NC(=O)[C@H](CC(C)C)NC(=O)[C@H](CC(C)C)NC(=O)[C@H](CCCN)NC(=O)[C@H](CCCNC(=N)N)NC(=O)[C@H](C)NC(=O)[C@H](CO)NC(=O)[C@H](CC(C)C)NC(=O)[C@H](CCC(N)=O)NC(=O)[C@H](CC)NC(=O)[C@H](CC(C)C)NC(=O)[C@@H](NC(=O)[C@H](CCCN)NC(=O)[C@H](CCCNC(=N)N)NC(=O)[C@H](Cc1ccc(O)cc1)NC(=O)[C@H](CO)NC(=O)[C@H](CCC(N)=O)NC(=O)[C@@H](NC(=O)[C@H](Cc1ccccc1)NC(=O)[C@@H](NC(=O)[C@H](C)NC(=O)[C@H](CC(=O)O)NC(=O)[C@H](C)NC(=O)CCc1ccc(O)cc1)[C@@H](C)CC)[C@@H](C)O)C(C)C)[C@@H](C)CC)C(=O)N[C@@H](CC(=O)O)C(=O)N[C@@H](CCCNC(=N)N)C(=O)NC,"GH release, ELISA","male Sprague-Dawley rat, anaesthetised, serum","subcutaneous, 3 µg/kg, 30 min",,serum GH level,135 ± 10.8 ng/mL
COc1ccc(-c2oc3ccccc3c(=O)c2OCc2ccccc2)cc1,,diabetic rat,"5 mg/kg, 28 days, p-nitrophenyl β-glucoside induced",,serum LDL cholesterol,102 ± 3.19 mg/dL

# For quick reference, copied from above:
SMILES,assay,system,conditions,scale,quantity,value
Cc1ccc(-c2oc3ccccc3c(=O)c2OCc2ccccc2)cc1,,diabetic rat,"7.5 mg/kg, p-nitrophenyl β-glucoside induced",,serum alkaline phosphatase,192 ± 4.05 IU
Cc1cc2c(cc1C1(c3ncc(C(=O)O)cn3)CC1)C(C)(C)CCC2(C)C,"RNA sequencing, item: Sycp2","rat, brain","dose not given, 24 h",baseline: vehicle,log2 fold change,0.69
CCCC[C@H](NC(=O)[C@@H](NC(=O)[C@H](CC(=O)O)NC(=O)[C@H](CCC(N)=O)NC(=O)[C@H](CC(C)C)NC(=O)[C@H](CC(C)C)NC(=O)[C@H](CCCN)NC(=O)[C@H](CCCNC(=N)N)NC(=O)[C@H](C)NC(=O)[C@H](CO)NC(=O)[C@H](CC(C)C)NC(=O)[C@H](CCC(N)=O)NC(=O)[C@H](CC)NC(=O)[C@H](CC(C)C)NC(=O)[C@@H](NC(=O)[C@H](CCCN)NC(=O)[C@H](CCCNC(=N)N)NC(=O)[C@H](Cc1ccc(O)cc1)NC(=O)[C@H](CO)NC(=O)[C@H](CCC(N)=O)NC(=O)[C@@H](NC(=O)[C@H](Cc1ccccc1)NC(=O)[C@@H](NC(=O)[C@H](C)NC(=O)[C@H](CC(=O)O)NC(=O)[C@H](C)NC(=O)CCc1ccc(O)cc1)[C@@H](C)CC)[C@@H](C)O)C(C)C)[C@@H](C)CC)C(=O)N[C@@H](CC(=O)O)C(=O)N[C@@H](CCCNC(=N)N)C(=O)NC,"GH release, ELISA","male Sprague-Dawley rat, anaesthetised, serum","subcutaneous, 3 µg/kg, 30 min",,serum GH level,135 ± 10.8 ng/mL
